{"data": "Results of several laboratories", "note": "A part holds a random share of what one study measured. Values joined by “and” are separate records of one study, mostly repeats; a detail may differ. Changes are numbered by the printed parent chain."}
{"data": "Set 1", "target": "HLA class I histocompatibility antigen, A alpha chain, allele A*25:01 (Homo sapiens, UniProt P04439)", "read-out": "peptide-MHC binding", "form": "peptide", "tested at": "concentration not given"}
{"Sequence": "FHRKKTDAL", "binding": "inactive"}
{"Sequence": "LTDSSTLLV", "binding": "inactive"}
{"Sequence": "MACHRVLTY", "binding": "inactive"}
{"Sequence": "YSLEYFQFVKK", "binding": "inactive"}
{"Sequence": "YQIEGAWRA", "binding": "inactive"}
{"Sequence": "MARPADASM", "binding": "inactive"}
{"Sequence": "LLDLEGHIL", "binding": "inactive"}
{"Sequence": "SPLPITLKY", "binding": "inactive"}
{"data": "Set 2", "target": "UBE2A UBC core domain (UniProt P49459)", "technique": "yeast two-hybrid", "medium": "yeast", "setting": "mostly zero background", "reference": "not given", "direction": "higher = stronger interaction", "B1": "TRIM32 RING domain (UniProt Q13049); chain NLDALREVLECPICMESFTEEQLRPKLLHCGHTICRQCLEKLLASSINGVRCPFCSKITRITSLTQ", "B2": "PJA2 RING domain (UniProt O43164); chain DHTAIGQEQCCPICCSEYIKDDIATELPCHHFFHKPCVSIWLQKSGTCPVCRRHFPPAVIEA", "B3": "UBE4B RING domain (UniProt O95155); chain KNARAEIDYSDAPDEFRDPLMDTLMTDPVRLPSGTIMDRSIILRHLLNSPTDPFNRQTLTESMLEPVPELKEQIQAWMREKQNSDH", "B4": "TRIM68 RING domain (UniProt Q6AZZ1); chain LVEAIVEEVACPICMTFLREPMSIDCGHSFCHSCLSGLWEIPGESQNWGYTCPLCRAPVQPRNLRP", "B5": "TRIM28 RING domain (UniProt Q13263); chain GAEALELLEHCGVCRERLRPEREPRLLPCLHSACSACLGPAAPAAANSSGDGGAAGDGTVVDCPVCKQQCFSKDIVE", "B6": "RNF10 RING domain (UniProt Q8N5U6); chain VRICSHEVPSCPICLYPPTAAKITRCGHIFCWACILHYLSLSEKTWSKCPICYSSVHKKDLKS", "UniProt P49459, sequence (whole entry, looked up)": "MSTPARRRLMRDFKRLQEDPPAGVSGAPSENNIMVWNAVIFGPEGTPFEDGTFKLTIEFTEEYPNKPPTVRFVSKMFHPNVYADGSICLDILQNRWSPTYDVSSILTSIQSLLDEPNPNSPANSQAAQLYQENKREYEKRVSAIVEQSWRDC"}
{"Sequence": "B1 (TRIM32 RING domain)", "lacZ reporter activity": 0}
{"Sequence": "B2 (PJA2 RING domain)", "lacZ reporter activity": 0}
{"Sequence": "KITELNPHLMCALCGGYFIDATTIVECLHSFCKTCIVRYLETNKYCPMCDVQVHKTRPLL (PCGF2 RING domain (UniProt P35227))", "lacZ reporter activity": 0}
{"Sequence": "B3 (UBE4B RING domain)", "lacZ reporter activity": 0}
{"Sequence": "FLSKVEETFQCICCQELVFRPITTVCQHNVCKDCLDRSFRAQVFSCPACRYDLGRSYAMQ (UHRF1 RING domain (UniProt Q96T88))", "lacZ reporter activity": 0}
{"Sequence": "B4 (TRIM68 RING domain)", "lacZ reporter activity": 0}
{"Sequence": "B5 (TRIM28 RING domain)", "lacZ reporter activity": 0}
{"Sequence": "B6 (RNF10 RING domain)", "lacZ reporter activity": 0}
{"data": "Mixed results", "CCNB1": "CCNB1, cyclin fold, Cln2 fusion (human)", "P1": "viral docking peptide; KGVKRKLFAEDSS; partner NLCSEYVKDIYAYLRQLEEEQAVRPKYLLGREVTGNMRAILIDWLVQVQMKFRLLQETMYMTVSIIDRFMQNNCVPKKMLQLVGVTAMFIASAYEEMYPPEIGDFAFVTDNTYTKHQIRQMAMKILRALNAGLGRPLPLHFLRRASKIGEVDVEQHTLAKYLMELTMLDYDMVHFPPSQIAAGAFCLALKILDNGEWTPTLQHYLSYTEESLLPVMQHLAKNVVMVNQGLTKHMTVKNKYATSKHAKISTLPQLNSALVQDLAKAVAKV", "P2": "viral docking peptide; YKVKRRLVFGADD; partner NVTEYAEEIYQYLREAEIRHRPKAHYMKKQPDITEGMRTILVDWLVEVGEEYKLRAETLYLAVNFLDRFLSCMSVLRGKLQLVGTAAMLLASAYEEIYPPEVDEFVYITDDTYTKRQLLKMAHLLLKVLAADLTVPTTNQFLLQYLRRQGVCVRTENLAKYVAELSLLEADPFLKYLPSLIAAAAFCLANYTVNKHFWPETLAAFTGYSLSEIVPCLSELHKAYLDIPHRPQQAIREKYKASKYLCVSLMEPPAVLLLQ"}
{"Molecule": "P1 S12H", "tested on": "CCNB1", "assay": "yeast growth competition, sequencing", "system": "yeast", "setting": "strong parent motif", "scale": "reference: not given, higher = stronger binding", "measurement": "normalised enrichment score", "value": 2.33}
{"Molecule": "O=S(=O)(Cc1ccccc1F)c1oc(-c2ccc(F)cc2)nc1S(=O)(=O)c1ccccc1", "tested on": "HEK-293T-ACE2-TMPRSS2", "assay": "cell count", "setting": "concentration not given", "measurement": "viability", "value": "98%"}
{"Molecule": "YKVKRRLVFGADD", "tested on": "Saccharomyces cerevisiae", "assay": "peptide binding, yeast competitive growth sequencing", "system": "peptide, cyclin F-Cln2 fusion", "setting": "concentration not given, RxL motif peptides", "scale": "direction not given", "measurement": "binding score", "value": 10}
{"Molecule": "CS(=O)(=O)c1ncc(Cl)c(C(=O)Nc2cccc(I)c2)n1", "tested on": "HEK-293T-ACE2-TMPRSS2", "assay": "cell count", "setting": "concentration not given", "measurement": "viability", "value": "68%"}
{"Molecule": "P2 V8G", "tested on": "CCNA1, cyclin fold, Cln2 fusion (human)", "assay": "yeast growth competition, sequencing", "system": "yeast", "setting": "strong parent motif", "scale": "reference: not given, higher = stronger binding", "measurement": "normalised enrichment score", "value": 0.325}
{"Molecule": "CC(C)S(=O)(=O)c1ccc2nccc(Nc3ccc4sc(C5CCCC5)nc4c3)c2c1.Cl", "tested on": "L929 RIPK3-/- reexpressing RIPK3 K51A", "assay": "CCK-8", "setting": "1.563 µM", "measurement": "survival", "value": "94.6% and 96% and 91.4% and 97.5%"}
{"Molecule": "P1 D11R", "tested on": "CCNB1", "assay": "yeast growth competition, sequencing", "system": "yeast", "setting": "strong parent motif", "scale": "reference: not given, higher = stronger binding", "measurement": "normalised enrichment score", "value": 0.676}
{"note": "For quick reference, copied from above (mixed results):"}
{"Molecule": "O=S(=O)(Cc1ccccc1F)c1oc(-c2ccc(F)cc2)nc1S(=O)(=O)c1ccccc1", "tested on": "HEK-293T-ACE2-TMPRSS2", "assay": "cell count", "setting": "concentration not given", "measurement": "viability", "value": "98%"}
{"Molecule": "P1 S12H", "tested on": "CCNB1", "assay": "yeast growth competition, sequencing", "system": "yeast", "setting": "strong parent motif", "scale": "reference: not given, higher = stronger binding", "measurement": "normalised enrichment score", "value": 2.33}
{"Molecule": "CS(=O)(=O)c1ncc(Cl)c(C(=O)Nc2cccc(I)c2)n1", "tested on": "HEK-293T-ACE2-TMPRSS2", "assay": "cell count", "setting": "concentration not given", "measurement": "viability", "value": "68%"}
